Experimental data pooled from the literature.
“And” joins repeats or separate records; there may be more than shown. ± marks the error that the study gave.
ESR1: Estrogen receptor (ESR1, Homo sapiens, UniProt P03372)

By UniProt entry, the sequences of proteins in these tests, tags left out. Residues count along the entry.
UniProt P03372, whole entry: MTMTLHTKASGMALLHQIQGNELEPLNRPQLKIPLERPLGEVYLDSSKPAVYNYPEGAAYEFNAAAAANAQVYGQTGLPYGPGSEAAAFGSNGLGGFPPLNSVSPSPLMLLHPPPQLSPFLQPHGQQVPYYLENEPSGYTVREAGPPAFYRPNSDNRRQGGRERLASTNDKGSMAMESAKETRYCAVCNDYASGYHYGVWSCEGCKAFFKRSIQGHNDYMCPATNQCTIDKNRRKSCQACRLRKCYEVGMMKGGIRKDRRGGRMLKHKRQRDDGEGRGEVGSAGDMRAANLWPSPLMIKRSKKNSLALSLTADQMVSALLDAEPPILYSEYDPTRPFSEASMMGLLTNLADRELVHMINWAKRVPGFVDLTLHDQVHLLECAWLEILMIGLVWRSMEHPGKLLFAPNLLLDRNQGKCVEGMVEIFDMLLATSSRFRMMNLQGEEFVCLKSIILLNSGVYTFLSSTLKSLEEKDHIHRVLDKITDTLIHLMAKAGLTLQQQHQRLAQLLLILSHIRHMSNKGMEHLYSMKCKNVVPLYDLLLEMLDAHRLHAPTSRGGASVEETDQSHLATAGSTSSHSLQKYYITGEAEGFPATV
UniProt O95835, whole entry: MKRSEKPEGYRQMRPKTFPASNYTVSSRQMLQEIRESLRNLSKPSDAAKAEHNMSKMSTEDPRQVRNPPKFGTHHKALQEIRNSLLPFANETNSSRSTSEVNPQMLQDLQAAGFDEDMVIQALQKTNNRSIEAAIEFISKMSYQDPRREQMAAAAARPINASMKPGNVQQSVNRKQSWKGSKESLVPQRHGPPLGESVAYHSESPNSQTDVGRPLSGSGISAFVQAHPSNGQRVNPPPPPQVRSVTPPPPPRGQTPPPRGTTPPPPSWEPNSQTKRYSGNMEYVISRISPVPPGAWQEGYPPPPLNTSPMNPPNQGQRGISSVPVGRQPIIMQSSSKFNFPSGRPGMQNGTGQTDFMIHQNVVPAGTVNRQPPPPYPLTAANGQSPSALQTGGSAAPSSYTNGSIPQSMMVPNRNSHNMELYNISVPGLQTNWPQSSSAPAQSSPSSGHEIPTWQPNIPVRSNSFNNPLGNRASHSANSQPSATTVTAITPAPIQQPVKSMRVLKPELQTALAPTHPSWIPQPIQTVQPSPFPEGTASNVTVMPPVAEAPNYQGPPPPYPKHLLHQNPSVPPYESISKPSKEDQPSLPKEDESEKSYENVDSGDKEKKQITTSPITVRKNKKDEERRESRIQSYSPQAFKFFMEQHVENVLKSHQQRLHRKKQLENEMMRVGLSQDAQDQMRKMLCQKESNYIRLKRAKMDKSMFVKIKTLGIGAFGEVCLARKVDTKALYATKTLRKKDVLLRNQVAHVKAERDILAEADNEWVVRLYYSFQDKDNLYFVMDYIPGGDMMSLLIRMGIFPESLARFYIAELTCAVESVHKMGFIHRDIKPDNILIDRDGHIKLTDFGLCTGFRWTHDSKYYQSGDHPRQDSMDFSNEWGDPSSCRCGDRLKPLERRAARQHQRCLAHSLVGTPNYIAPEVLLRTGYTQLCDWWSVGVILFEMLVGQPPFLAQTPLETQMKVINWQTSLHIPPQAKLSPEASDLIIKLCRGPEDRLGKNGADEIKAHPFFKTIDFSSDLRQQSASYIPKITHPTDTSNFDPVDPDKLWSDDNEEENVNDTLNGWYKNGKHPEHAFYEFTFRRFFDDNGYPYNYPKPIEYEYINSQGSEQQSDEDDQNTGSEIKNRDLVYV
UniProt O00167, whole entry: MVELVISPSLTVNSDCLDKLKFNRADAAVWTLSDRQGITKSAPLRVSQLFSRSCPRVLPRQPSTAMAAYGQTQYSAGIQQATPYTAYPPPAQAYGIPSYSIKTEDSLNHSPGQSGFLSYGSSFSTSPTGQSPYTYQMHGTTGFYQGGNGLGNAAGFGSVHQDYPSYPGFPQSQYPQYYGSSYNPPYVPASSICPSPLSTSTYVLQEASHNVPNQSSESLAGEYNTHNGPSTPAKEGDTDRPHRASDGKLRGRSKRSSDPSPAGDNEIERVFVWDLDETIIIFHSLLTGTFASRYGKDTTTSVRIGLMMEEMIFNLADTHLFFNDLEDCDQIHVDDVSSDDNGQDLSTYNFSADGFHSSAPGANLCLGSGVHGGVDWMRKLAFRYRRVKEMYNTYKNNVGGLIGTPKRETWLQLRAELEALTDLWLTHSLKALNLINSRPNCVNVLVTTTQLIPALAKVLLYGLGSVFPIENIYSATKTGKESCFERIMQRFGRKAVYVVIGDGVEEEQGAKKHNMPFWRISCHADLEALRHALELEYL
UniProt Q5S007, whole entry: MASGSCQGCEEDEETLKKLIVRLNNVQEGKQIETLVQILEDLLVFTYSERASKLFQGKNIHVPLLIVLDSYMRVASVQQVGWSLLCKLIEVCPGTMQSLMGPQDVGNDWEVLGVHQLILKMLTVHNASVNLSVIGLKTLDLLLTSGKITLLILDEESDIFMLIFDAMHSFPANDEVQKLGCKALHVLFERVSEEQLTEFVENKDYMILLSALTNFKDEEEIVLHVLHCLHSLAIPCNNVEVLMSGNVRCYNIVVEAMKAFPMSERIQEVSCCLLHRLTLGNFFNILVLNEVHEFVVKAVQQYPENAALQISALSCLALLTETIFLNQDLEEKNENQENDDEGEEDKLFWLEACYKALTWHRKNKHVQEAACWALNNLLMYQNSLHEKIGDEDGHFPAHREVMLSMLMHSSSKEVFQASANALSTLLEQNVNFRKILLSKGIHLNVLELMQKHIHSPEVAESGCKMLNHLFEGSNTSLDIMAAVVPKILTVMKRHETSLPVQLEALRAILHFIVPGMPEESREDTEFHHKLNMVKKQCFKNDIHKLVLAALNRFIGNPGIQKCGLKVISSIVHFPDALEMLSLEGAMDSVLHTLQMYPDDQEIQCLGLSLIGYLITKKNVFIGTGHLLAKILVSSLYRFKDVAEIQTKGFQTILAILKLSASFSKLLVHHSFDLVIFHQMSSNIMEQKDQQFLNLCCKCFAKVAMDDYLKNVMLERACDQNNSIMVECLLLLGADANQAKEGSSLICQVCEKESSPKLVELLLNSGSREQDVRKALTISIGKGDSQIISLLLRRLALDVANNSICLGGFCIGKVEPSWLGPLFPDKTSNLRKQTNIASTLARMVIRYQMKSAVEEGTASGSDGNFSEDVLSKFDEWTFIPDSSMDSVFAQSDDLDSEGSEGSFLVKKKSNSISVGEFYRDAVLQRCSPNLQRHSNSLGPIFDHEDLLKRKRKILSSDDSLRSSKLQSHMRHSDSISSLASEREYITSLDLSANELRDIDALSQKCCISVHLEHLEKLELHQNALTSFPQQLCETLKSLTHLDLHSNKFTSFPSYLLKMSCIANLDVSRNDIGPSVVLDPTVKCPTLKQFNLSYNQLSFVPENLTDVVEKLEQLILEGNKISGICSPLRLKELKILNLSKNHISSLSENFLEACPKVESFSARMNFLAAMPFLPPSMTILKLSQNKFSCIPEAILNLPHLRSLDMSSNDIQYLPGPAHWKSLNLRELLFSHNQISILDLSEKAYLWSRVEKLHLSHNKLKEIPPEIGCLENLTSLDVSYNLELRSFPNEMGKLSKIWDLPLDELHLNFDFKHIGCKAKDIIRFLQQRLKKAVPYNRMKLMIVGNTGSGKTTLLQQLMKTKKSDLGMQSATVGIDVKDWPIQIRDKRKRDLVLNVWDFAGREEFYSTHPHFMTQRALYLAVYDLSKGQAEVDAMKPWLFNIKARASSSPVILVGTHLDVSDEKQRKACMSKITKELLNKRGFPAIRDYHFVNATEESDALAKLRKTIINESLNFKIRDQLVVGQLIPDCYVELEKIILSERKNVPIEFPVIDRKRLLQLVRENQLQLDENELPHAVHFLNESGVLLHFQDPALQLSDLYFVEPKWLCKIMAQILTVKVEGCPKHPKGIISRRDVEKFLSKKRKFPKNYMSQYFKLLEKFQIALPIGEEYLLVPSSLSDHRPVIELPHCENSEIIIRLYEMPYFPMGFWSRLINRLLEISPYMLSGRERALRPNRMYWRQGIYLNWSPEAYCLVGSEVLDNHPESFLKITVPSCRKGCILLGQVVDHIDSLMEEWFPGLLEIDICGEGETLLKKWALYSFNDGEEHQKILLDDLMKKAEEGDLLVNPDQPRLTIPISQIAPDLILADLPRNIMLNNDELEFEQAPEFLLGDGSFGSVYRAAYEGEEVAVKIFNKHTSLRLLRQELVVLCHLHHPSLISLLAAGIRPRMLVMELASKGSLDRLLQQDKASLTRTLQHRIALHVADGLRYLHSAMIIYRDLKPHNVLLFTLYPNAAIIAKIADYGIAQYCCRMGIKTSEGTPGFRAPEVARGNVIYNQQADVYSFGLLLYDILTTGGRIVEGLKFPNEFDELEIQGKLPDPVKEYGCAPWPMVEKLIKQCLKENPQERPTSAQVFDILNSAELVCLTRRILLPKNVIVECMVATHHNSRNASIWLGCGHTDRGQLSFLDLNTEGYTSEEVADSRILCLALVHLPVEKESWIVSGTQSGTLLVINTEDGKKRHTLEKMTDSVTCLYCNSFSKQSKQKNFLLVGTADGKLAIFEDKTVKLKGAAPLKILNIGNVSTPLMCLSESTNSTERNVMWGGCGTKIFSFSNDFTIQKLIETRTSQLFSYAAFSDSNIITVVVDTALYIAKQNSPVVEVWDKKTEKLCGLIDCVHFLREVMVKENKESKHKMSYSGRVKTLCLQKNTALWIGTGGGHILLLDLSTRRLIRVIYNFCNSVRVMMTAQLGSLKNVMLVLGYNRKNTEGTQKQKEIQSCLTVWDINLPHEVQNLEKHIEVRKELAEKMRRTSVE
UniProt O00748, 27-559 limits assumed: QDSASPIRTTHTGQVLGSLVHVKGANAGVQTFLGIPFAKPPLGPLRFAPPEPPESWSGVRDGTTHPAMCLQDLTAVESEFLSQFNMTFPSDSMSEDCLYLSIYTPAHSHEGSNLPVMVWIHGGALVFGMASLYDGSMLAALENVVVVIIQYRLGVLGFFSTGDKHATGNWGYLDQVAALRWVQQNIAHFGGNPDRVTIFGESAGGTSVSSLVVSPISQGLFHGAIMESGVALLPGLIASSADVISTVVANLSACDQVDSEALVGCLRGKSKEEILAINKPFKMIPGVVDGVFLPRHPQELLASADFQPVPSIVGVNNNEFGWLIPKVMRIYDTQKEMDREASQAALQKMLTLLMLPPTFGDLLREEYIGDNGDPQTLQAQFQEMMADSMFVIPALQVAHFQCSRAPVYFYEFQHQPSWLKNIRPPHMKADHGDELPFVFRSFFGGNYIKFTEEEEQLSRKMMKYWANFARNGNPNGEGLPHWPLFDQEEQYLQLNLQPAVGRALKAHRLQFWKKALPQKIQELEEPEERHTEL
UniProt P14902, whole entry: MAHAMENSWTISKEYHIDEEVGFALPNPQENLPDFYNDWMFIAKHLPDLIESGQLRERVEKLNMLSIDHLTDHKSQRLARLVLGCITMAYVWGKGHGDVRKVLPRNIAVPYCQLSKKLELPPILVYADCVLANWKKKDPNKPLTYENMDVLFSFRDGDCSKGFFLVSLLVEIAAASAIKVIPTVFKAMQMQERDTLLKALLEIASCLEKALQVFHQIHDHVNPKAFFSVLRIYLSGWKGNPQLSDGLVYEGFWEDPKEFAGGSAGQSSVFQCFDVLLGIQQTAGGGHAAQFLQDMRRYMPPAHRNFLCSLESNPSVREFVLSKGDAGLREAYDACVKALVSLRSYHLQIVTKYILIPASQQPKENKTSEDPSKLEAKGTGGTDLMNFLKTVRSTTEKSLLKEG
UniProt P10747, whole entry, looked up: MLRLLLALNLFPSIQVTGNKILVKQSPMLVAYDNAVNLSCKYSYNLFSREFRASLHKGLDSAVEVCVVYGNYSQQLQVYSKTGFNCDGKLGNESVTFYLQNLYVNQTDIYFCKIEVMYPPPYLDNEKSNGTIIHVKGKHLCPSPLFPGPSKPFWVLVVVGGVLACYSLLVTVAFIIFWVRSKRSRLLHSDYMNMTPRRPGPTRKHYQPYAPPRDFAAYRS
UniProt P06493, whole entry: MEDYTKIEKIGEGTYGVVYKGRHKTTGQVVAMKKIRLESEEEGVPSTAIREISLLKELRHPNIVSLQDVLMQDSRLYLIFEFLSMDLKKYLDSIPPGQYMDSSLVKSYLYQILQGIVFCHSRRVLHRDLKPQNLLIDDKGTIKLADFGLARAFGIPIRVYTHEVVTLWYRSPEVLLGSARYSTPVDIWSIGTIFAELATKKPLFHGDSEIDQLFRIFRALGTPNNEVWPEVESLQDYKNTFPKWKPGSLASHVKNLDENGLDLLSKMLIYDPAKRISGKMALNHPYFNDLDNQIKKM
UniProt Q92879, 1-187 limits assumed: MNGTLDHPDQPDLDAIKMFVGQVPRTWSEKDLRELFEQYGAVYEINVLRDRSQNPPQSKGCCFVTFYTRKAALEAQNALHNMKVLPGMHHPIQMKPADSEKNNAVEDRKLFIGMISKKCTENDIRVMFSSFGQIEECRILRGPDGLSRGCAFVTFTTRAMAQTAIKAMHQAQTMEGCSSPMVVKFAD
UniProt Q07440, 1-152 P104K/C113S limits assumed: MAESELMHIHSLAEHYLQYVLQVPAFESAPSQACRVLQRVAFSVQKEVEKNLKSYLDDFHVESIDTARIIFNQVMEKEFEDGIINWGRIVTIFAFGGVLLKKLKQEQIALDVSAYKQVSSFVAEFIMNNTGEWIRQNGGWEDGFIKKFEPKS

| Compound | target | assay | system | setting | IC50 |
| --- | --- | --- | --- | --- | --- |
| COc1ccccc1C(=O)Nc1ccc(-c2nc3ccccc3s2)cc1 | Tyrosine-protein kinase SYK, with FCER1G (SYK, Homo sapiens, UniProt P43405) | protein binding, inhibitor, TR-FRET | – | – | > 100 µM |
| Oc1ccccc1C1=NCCS1 | Adenosine deaminase (ADA, Bos taurus, UniProt P56658) | enzyme activity | – | 25 °C | > 700 µM |
| Clc1ccc(C2(c3ccc(-c4cccnc4)cc3)CCNCC2)cc1 | Serine/threonine-protein kinase LATS1 (LATS1, Homo sapiens, UniProt O95835) | kinase activity, inhibitor, radiometric HotSpot | – | together with: ATP 10 µM | > 10 µM |
| COC(=O)/C(=C/c1c[nH]c2ccc(F)cc12)c1ccc(NS(C)(=O)=O)cc1 | Amyloid-beta precursor protein, amyloid-beta peptide (APP, Homo sapiens, UniProt P05067) | Aβ42 oligomerisation, ELISA | – | – | > 20 µM |
| O=C(N/N=C/c1ccc(Sc2ccccn2)s1)c1cccc(Oc2ccccc2)c1 | Protein phosphatase EYA2 (Homo sapiens, UniProt O00167) | tyrosine phosphatase activity, inhibitor | – | – | 0.15 µM |
| CCN1c2ccccc2C(=O)N(C)c2cnc(Nc3ccc(C(=O)N4CCC(N5CCN(C)CC5)CC4)cc3OC)nc21 | Leucine-rich repeat serine/threonine-protein kinase 2 (LRRK2, Homo sapiens, UniProt Q5S007) | kinase activity, Adapta | – | – | 0.0044 ± 0.0005 µM |
| COc1cc2c(cc1OC)C(=O)C(=Cc1ccccc1OC(=O)N(C)C)C2 | Cocaine esterase (CES2, Homo sapiens, UniProt O00748) | intracellular enzyme activity | HepG2 | 1 h, together with: fluorogenic substrate 10 µM | 0.00363 µM |
| CN1CCN(Cc2ccc(NC(=O)c3cncc(C#Cc4c(N)ncc5ccc(F)cc45)c3)cc2C(F)(F)F)CC1 | Kinesin-1 heavy chain/ Tyrosine-protein kinase receptor RET (RET/KIF5B, Homo sapiens, UniProt P07949+P33176, G810S) | cell viability, inhibitor, CellTiter-Glo | Ba/F3 KIF5B-RET G810S | – | 0.0151 ± 0.0005 µM |
| OC[C@H]1[C@@H](O)[C@H](O)[C@@H](O)CN1CCCCCOCc1ccc(Br)cc1 | Beta-glucosidase (GBA2, Homo sapiens, UniProt Q9HCG7) | inhibitor, 4-methylumbelliferyl glucoside | HEK293T overexpressing GBA2 homogenate | – | 0.00025 µM |
| N=C(N)NCCC[C@H](NC(=O)c1cc(C(=O)O)cc([C@H]2CCN[C@@H]2C(=O)O)c1)C(=O)O | AMPA receptor (rat) | binding, radioligand binding | rat cortical synaptosomes | together with: [3H]AMPA | 10 µM |
| CC(C)(C)c1ccc(SCC(=O)Nc2ccc3nc(SCC(=O)NC4CC4)sc3c2)cc1 | ESR1 | reporter gene, antagonist | HEC-1 transfected ERα luciferase reporter | – | 20 to 50 µM |
| COc1cccc(/C=N/NC(=O)c2cn(-c3nonc3N)nn2)c1O | NAD-dependent protein deacylase sirtuin-6 (SIRT6, Homo sapiens, UniProt Q8N6T7) | deacetylase activity, inhibitor, Fluor de Lys | – | together with: Ac-RHKK(Ac)-AMC substrate | 19.9 ± 3.05 µM |
| CN1CC[C@H](c2c(O)cc(O)c3c(=O)cc(-c4cccc(Cl)c4)oc23)[C@H](O)C1 | Cyclin-dependent kinase 2, part with cyclin A (CDK2, Homo sapiens, UniProt P24941) | enzyme activity, inhibitor | – | with cyclin A, together with: histone H1 substrate | 0.164 µM |
| COc1ccc(C(NS(=O)(=O)c2cccs2)C(=O)Nc2ccc(Cl)cc2)cc1 (centres unmarked) | Uracil nucleotide/cysteinyl leukotriene receptor, long isoform (GPR17, Homo sapiens, UniProt Q13304) | calcium mobilization, antagonist | 1321-N1 | – | 14 ± 0.76 µM |
| CC(C)[C@H](NC(=O)c1cc(C(=O)O)cc([C@H]2CCN[C@@H]2C(=O)O)c1)C(=O)O | AMPA receptor (rat) | binding, radioligand binding | rat cortical synaptosomes | together with: [3H]AMPA | 27 µM |
| Nc1ccc(C(=O)N2C[C@H](O)C[C@H]2C(=O)NCc2ccc(Cl)cc2)cc1 | von Hippel-Lindau disease tumor suppressor, with elongin B, C (VHL, Homo sapiens, UniProt P40337) | binding, fluorescence polarization | – | 10% DMSO, together with: FAM-HIF1α peptide tracer | 29 ± 3 µM |
| Clc1ccc(C2(c3ccc(-c4ccncc4)cc3)CCNCC2)cc1 | Serine/threonine-protein kinase LATS2 (LATS2, Homo sapiens, UniProt Q9NRM7) | kinase activity, inhibitor, radiometric HotSpot | – | together with: ATP 10 µM | 0.007 µM |
| COc1ccccc1C(=O)Nc1ccc(-c2nc3ccc(NC(=O)c4ccccc4OC)cc3s2)cc1 | Moesin, with CD44 (Homo sapiens, UniProt P26038) | MSN-CD44 interaction, inhibitor, TR-FRET | – | together with: CD44 | 47.7 µM |
| COc1ccc2nc3ccc(OC)cc3c(CCCCN)c2c1 | Serine/threonine-protein kinase haspin (HASPIN, Homo sapiens, UniProt Q8TF76) | inhibitor, TR-FRET | – | inactive at 20 µM, together with: histone H3 peptide substrate | 0.025 µM |
| C[C@H](Nc1nc(N[C@H](C)C2CC2)nc(-c2cccc(C(F)(F)F)n2)n1)C1CC1 | Isocitrate dehydrogenase [NADP] cytoplasmic (IDH1, Homo sapiens, UniProt O75874, R132H) | enzyme activity, inhibitor | – | mutant heterodimer reverse reaction | 0.014 µM |
| N#Cc1cccc(OC(=O)N2CC(OC(c3ccccc3)c3ccccc3)C2)c1 | Monoacylglycerol lipase ABHD6 (ABHD6, Homo sapiens, UniProt Q9BV23) | inhibitor, fluorescence | – | – | 0.198 ± 0.0028 µM |
| COc1cc([C@@H]2c3cc4c(cc3C=C(C=O)[C@H]2C(=O)OCc2ccc(CBr)cc2)OCO4)cc(OC)c1OC | Tubulin alpha/beta heterodimer (Leishmania infantum, UniProt A0A381MCS3+A4HTR0) | tubulin polymerization, inhibitor | – | 37 °C, together with: tubulin 1.2 mg/mL | 2 µM and 2.02 µM |

| Compound | target | assay | system | setting | IC50 |
| --- | --- | --- | --- | --- | --- |
| O=C1NC(=O)C(Cc2ccc(OCCNc3ccccn3)cc2)S1 (centres unmarked) | Long-chain-fatty-acid--CoA ligase 4 (ACSL4, Homo sapiens, UniProt O60488) | enzyme activity, inhibitor, EnzChek pyrophosphate | – | – | 5.1 ± 1 µM |
| O=C(O)c1csc(-n2nc(-c3ccccc3)cc2C(F)(F)F)n1 | L-lactate dehydrogenase A chain (LDHA, Homo sapiens, UniProt P00338) | enzyme activity, inhibitor | – | – | 33.5 µM |
| CN(CCc1ccc(Cl)c(Cl)c1)C[C@H](O)COc1ccc(NS(C)(=O)=O)cc1 | Glutamate NMDA receptor; Grin1/Grin2b (Grin1/Grin2b, Rattus norvegicus, UniProt P35439+Q00960) | – | – | pH 6.9 | 0.05 µM |
| O=C(CC1SC(=NN=Cc2ccccc2[N+](=O)[O-])NC1=O)Nc1ccc(C(=O)O)cc1 (centres unmarked) | Protein phosphatase 3 catalytic subunit alpha (PPP3CA, Homo sapiens, UniProt Q08209) | phosphatase activity, inhibitor, malachite green | – | together with: phosphopeptide substrate at Km | 63 µM |
| CCc1ccc(SCC(=O)Nc2ccc3nc(SCC(=O)NC(C)C)sc3c2)cc1 | ESR1 | reporter gene, antagonist | HEC-1 transfected ERα luciferase reporter | – | 20 to 50 µM |
| COc1ccc2[nH]cc(/C=C/c3c[nH]c4ccccc34)c2c1 | Indoleamine 2,3-dioxygenase 1 (IDO1, Homo sapiens, UniProt P14902) | enzyme activity, inhibitor | – | – | 5.5 µM |
| CC(=NNC(=N)N)c1ccc2[nH]c(C(=O)Nc3ccc4cc[nH]c4c3)cc2c1 | Ribosomal protein S6 kinase alpha-3 (RPS6KA3, Homo sapiens, UniProt P51812) | kinase activity, inhibitor, IMAP fluorescence polarization | – | – | > 100 µM |
| COc1ccc(CCC2OC(=O)C3CCCCN3C(=O)C(=O)C(C)(C)COC(=O)C=CCCN(C)C(=O)CNC(=O)C(COC(C)(C)C)N(C)C(=O)C(Cc3ccc4ccccc4c3)NC(=O)C(C)N(C)C(=O)COc3cccc2c3)cc1OC (centres unmarked) | Solute carrier family 2, facilitated glucose transporter member 1 (SLC2A1, Homo sapiens, UniProt P11166) | 2-deoxyglucose uptake, inhibitor | – | together with: [3H]-2-deoxy-D-glucose | 0.046 µM |
| COc1ccc(CC(=O)OCc2ccc(-n3cccn3)cc2)cc1F | CD28, with CD80 (Homo sapiens, UniProt P10747) | B7-1 binding, inhibitor, competitive ELISA | – | – | 22.4 ± 6.8 µM |
| CN(Cc1ccncc1)c1ccc2c(c1)c(=O)c(C(N)=O)cn2-c1ccc(F)cc1 | Metabotropic glutamate receptor 2 (Grm2, Rattus norvegicus, UniProt P31421) | calcium mobilization, negative allosteric modulator | – | – | 0.201 µM |
| COc1ccc(-c2nc(S(C)(=O)=O)nn2-c2ccc(OC)cc2)cc1 | Prostaglandin G/H synthase 1 (PTGS1, Homo sapiens, UniProt P23219) | thromboxane B2 production, inhibitor, enzyme immunoassay | human whole blood | – | 0.006 ± 0.0002 µM |
| C[C@@H](OCC1CCCCC1)[C@H](NC(=O)[C@@H]1CN(C(=O)c2cncs2)CC12CN(C(=O)[C@H]1CC1(C)C)C2)C(=O)N1CCOCC1 | Cyclin-dependent kinase 2/cyclin E1 (Homo sapiens, UniProt P24864+P24941) | kinase activity, inhibitor, ADP-Glo | – | – | 0.75 µM |
| CN1CC[C@H](c2c(O)cc(O)c3c(=O)cc(-c4ccccc4F)oc23)[C@H](O)C1 | Cyclin-dependent kinase 1, with cyclin B (CDK1, Homo sapiens, UniProt P06493) | – | – | ATP at Km | 0.123 µM |
| CCOCCN1CCN(c2cc(N3CCCC3)nc(N3CCCC3)n2)CC1 | Caspase-1 (CASP1, Homo sapiens, UniProt P29466) | enzyme activity, inhibitor | – | 30 min preincubation, together with: Ac-WEHD-AMC 10 µM | 0.043 ± 0.003 µM |
| Nc1ccc2cc(N)ncc2c1 | CUGBP Elav-like family member 1, RRM1/2 (CELF1, Homo sapiens, UniProt Q92879) | RRM1/2-RNA binding, inhibitor, fluorescence polarization | – | together with: Cy3 GU RNA probe | 1.52 µM |
| Cc1ccc(NC(=O)c2cc3ccccc3c(N=Nc3cc(S(=O)(=O)O)ccc3O)c2O)c(C)c1 | Bcl-2-related protein A1 (Mus musculus, UniProt Q07440, C113S/P104K) | binding, inhibitor, fluorescence polarization competition | – | 3 µM Bfl-1/A1 protein, together with: 375 nM FITC-Noxa peptide | 27.3 µM |
| COC(=O)CC(C(=O)/C=C/c1ccc(O)c(OC(F)(F)F)c1)C(=O)/C=C/c1ccc(O)c(OC(F)(F)F)c1 | Amyloid-beta precursor protein, Aβ aggregates (APP, Homo sapiens, UniProt P05067) | binding, thioflavin T competition | – | – | 0.57 µM |
| N#Cc1ccc(N2CCN(C(=O)CCCCCn3c(=S)[nH]c4ccccc4c3=O)CC2)cc1 | ESR1 | reporter gene, antagonist | HEC-1 cells transfected with ERα | together with: estradiol 1 nM | 8 µM |
| CCn1c(=Cc2cccc[n+]2C)sc(=C2Sc3ccccc3N2C)c1=O | Heat shock 70 kDa protein 1A, with BAG3 (HSPA1A, Homo sapiens, UniProt P0DMV8) | Hsp70-Bag3 interaction, inhibitor, flow cytometry (FCPIA) | – | together with: labeled Bag3 50 nM | > 100 µM |
| Cc1nc(N)sc1-c1csc(Nc2ccc(O)cc2)n1 | Protein-lysine 6-oxidase (Homo sapiens, UniProt P28300) | LOX activity, inhibitor | MDA-MB-231 | – | 10 µM |
| COc1cccc(-c2cc(-n3nncc3-c3ccc(C(F)(F)F)cc3)ccc2OC)c1 | Heat shock protein HSP 90-alpha, with Aha1 (HSP90AA1, Homo sapiens, UniProt P07900) | Hsp90-Aha1 interaction, inhibitor, AlphaScreen | – | – | 4.69 ± 0.4 µM |
| CN[C@H](c1nc2cc(-c3ccnc(F)c3)sc2c(=O)[nH]1)C(C)C | Cell division cycle 7-related protein kinase (CDC7, Homo sapiens, UniProt O00311) | enzyme activity, inhibitor | – | – | 6.56 ± 0.229 µM |

A few entries again:
| Compound | target | assay | system | setting | IC50 |
| --- | --- | --- | --- | --- | --- |
| COC(=O)CC(C(=O)/C=C/c1ccc(O)c(OC(F)(F)F)c1)C(=O)/C=C/c1ccc(O)c(OC(F)(F)F)c1 | Amyloid-beta precursor protein, Aβ aggregates (APP, Homo sapiens, UniProt P05067) | binding, thioflavin T competition | – | – | 0.57 µM |
| CN1CCN(Cc2ccc(NC(=O)c3cncc(C#Cc4c(N)ncc5ccc(F)cc45)c3)cc2C(F)(F)F)CC1 | Kinesin-1 heavy chain/ Tyrosine-protein kinase receptor RET (RET/KIF5B, Homo sapiens, UniProt P07949+P33176, G810S) | cell viability, inhibitor, CellTiter-Glo | Ba/F3 KIF5B-RET G810S | – | 0.0151 ± 0.0005 µM |
| CC(C)(C)c1ccc(SCC(=O)Nc2ccc3nc(SCC(=O)NC4CC4)sc3c2)cc1 | ESR1 | reporter gene, antagonist | HEC-1 transfected ERα luciferase reporter | – | 20 to 50 µM |
